Results gathered from unrelated publications.
A part holds a random share of what one study measured.

Set 1
Target: Histone acetyltransferase KAT6A, winged helix 1, GST fusion (KAT6A, Homo sapiens, UniProt Q92794, residues 1-85)
Method: protein binding microarray
Molecule type: double-stranded DNA, one strand shown
Medium: in vitro
Tested at: not given
Setting: 8-mer, flanks averaged, mean of 2 arrays, mostly near background
Relative to: not given
Reading: higher = stronger binding
Target sequence (chain): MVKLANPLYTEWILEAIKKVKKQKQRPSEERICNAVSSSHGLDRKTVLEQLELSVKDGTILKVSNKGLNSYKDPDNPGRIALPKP
`CAAATCCA` has an E-score of -0.304.
`CTATGTGA` has an E-score of -0.122.
For `ATCGTCAT`, the E-score was -0.0875.

Set 2
Target: Sal-like protein 4, full length isoform B (SALL4, Homo sapiens, UniProt Q9UJQ4-2, residues 1-616)
Method: universal PBM
Molecule type: double-stranded DNA, one strand shown
Medium: in vitro
Tested at: not given
Setting: 8-mer, flanks averaged, mean of replicates
Reading: higher = stronger binding
For `CTCACTGA`, the E-score was -0.221.
The E-score of `CGTTGGAC` is reported as -0.186.
With `AATCGGAG` the E-score was -0.0878.
With `AGGCATAA` the E-score was 0.21.

Mixed results
IRF7 S101K/S471D/S472D/S475D/S476D/S477D/S483D/S484D/S487D full length, phosphomimetic: Interferon regulatory factor 7, full length, phosphomimetic (IRF7, Homo sapiens, UniProt Q92985, residues 1-503, S101K/S471D/S472D/S475D/S476D/S477D/S483D/S484D/S487D)
Chain of UniProt Q92985 (whole entry, unmodified, looked up): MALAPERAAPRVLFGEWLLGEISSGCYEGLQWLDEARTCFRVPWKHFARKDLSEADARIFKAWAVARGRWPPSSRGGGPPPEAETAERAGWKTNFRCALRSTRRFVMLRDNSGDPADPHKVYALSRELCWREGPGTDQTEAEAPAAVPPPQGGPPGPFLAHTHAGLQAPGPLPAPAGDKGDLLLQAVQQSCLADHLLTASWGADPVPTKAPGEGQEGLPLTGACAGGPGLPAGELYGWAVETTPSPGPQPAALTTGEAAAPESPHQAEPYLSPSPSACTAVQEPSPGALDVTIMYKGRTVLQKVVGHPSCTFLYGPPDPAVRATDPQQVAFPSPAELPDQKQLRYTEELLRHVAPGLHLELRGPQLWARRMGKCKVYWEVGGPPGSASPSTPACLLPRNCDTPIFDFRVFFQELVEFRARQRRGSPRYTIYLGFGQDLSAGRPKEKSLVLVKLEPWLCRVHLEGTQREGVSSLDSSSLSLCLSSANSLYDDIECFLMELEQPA
`GCCTAGCACTTACGACTGGACTTTCGGTTAGTGCTAGTCTTGATTCGCTTGACGCTGCTG` gave a log fluorescence of 0.921 z-score (IRF7 S101K/S471D/S472D/S475D/S476D/S477D/S483D/S484D/S487D full length, phosphomimetic; protein-binding microarray; double-stranded DNA, one strand shown, in vitro; 250 nM, 60-bp whole probe, together with: salmon DNA 0.4 mg/ml; relative to: random background probes, higher = stronger binding).
`PhoQ, residues 284 288 289 292 302 303 SLANIV` gave a fold induction of 8.14 (PhoP, residues 12 14 15 18 19 LHATL (Escherichia coli, UniProt P23836); Sort-seq, item: YFP reporter; E. coli; PhoQ-PhoP variant library, together with: 10 µM Mg2+; relative to: high Mg2+ state, higher = stronger signaling).
The log fluorescence of `GCCTAGCACGTCCTTTTCTTTACTGATGGGTGCTAGGTCTTGATTCGCTTGACGCTGCTG` is reported as 2.2 z-score (IRF7 S101K/S471D/S472D/S475D/S476D/S477D/S483D/S484D/S487D full length, phosphomimetic; protein-binding microarray; double-stranded DNA, one strand shown, in vitro; 250 nM, 60-bp whole probe, together with: salmon DNA 0.4 mg/ml; relative to: random background probes, higher = stronger binding).
`GCCTAGCACGACGAGTTCGGGACTGGAGACGTGCTAGTCTTGATTCGCTTGACGCTGCTG` gave a log fluorescence of -0.48 z-score (Interferon regulatory factor 5, full length, phosphomimetic (IRF5, Homo sapiens, UniProt Q13568-2, residues 1-514, K96S/S451D/S453D/S456D/S462D); protein-binding microarray; double-stranded DNA, one strand shown, in vitro; 250 nM, 60-bp whole probe, together with: salmon DNA 0.4 mg/ml; relative to: random background probes, higher = stronger binding).

Excerpt of the above (set 1):
`CAAATCCA` has an E-score of -0.304.
